Measurements gathered from unrelated publications.
Lines come from different studies, so protocols differ. Numbers after ± are the reported error.
DXR: 1-deoxy-D-xylulose 5-phosphate reductoisomerase, apicoplastic (DXR, Plasmodium falciparum, UniProt O96693)
UniProt O96693, sequence (whole entry, looked up): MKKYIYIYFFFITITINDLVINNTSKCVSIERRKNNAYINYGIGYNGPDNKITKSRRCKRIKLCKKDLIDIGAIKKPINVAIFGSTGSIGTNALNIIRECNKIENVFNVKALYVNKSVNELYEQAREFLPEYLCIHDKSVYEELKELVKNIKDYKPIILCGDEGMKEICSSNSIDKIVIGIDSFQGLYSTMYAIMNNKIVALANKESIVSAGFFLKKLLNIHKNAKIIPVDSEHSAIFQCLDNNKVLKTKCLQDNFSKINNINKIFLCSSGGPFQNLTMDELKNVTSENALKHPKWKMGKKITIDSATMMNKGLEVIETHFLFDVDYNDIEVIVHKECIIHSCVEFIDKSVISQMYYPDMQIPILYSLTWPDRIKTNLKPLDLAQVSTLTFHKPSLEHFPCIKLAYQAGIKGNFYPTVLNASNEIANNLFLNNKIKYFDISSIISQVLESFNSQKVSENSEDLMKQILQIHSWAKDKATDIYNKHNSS
Drd3: D(3) dopamine receptor (Drd3, Rattus norvegicus, UniProt P19020)
UniProt P19020, sequence (whole entry, looked up): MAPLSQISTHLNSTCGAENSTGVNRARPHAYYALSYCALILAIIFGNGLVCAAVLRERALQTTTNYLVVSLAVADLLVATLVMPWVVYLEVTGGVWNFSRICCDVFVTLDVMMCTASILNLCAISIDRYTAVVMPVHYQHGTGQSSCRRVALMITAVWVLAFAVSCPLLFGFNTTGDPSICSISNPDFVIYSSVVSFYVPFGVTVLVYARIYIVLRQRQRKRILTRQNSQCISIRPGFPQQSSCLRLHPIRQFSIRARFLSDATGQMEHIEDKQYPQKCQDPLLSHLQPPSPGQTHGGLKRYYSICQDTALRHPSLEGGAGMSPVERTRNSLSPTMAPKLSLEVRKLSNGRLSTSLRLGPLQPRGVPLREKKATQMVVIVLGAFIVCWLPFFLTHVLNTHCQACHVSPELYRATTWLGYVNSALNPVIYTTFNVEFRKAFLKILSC
HRH1: Histamine H1 receptor (HRH1, Homo sapiens, UniProt P35367)
UniProt P35367, sequence (whole entry, looked up): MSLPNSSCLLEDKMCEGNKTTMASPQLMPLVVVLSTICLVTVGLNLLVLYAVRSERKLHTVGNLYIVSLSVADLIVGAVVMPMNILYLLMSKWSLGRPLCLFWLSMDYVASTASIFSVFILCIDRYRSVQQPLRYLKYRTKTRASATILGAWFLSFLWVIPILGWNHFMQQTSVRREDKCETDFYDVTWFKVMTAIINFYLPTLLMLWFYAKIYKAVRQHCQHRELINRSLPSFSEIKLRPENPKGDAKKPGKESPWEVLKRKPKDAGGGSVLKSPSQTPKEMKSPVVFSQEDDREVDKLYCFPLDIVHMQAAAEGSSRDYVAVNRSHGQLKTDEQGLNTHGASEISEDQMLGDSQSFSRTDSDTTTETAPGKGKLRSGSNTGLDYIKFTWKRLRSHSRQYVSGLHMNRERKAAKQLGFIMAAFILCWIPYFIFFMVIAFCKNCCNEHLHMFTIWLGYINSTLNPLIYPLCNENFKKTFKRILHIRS
Na(+)/H(+) exchange regulatory cofactor NHE-RF2 PDZ domain 2: Na(+)/H(+) exchange regulatory cofactor NHE-RF2, PDZ domain 2 (Homo sapiens, UniProt Q15599)
UniProt Q15599, sequence (whole entry, looked up): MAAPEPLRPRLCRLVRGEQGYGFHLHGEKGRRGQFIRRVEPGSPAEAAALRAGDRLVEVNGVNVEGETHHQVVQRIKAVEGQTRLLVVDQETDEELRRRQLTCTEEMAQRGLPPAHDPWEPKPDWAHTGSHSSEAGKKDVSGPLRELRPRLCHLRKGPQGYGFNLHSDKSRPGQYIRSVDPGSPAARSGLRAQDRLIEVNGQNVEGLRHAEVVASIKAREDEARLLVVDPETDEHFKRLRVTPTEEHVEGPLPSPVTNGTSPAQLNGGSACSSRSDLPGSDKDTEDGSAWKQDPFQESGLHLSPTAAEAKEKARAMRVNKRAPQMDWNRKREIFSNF
MSP: Male-specific submandibular salivary gland protein (MSP, Mesocricetus auratus, UniProt Q9QXU1)
UniProt Q9QXU1, sequence (whole entry, looked up): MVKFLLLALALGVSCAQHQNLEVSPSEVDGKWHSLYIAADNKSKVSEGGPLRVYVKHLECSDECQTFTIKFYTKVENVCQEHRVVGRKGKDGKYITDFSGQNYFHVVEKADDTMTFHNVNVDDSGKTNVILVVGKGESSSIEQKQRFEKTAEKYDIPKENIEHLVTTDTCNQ
P2RY1: P2Y purinoceptor 1 (P2RY1, Homo sapiens, UniProt P47900)
UniProt P47900, sequence (whole entry, looked up): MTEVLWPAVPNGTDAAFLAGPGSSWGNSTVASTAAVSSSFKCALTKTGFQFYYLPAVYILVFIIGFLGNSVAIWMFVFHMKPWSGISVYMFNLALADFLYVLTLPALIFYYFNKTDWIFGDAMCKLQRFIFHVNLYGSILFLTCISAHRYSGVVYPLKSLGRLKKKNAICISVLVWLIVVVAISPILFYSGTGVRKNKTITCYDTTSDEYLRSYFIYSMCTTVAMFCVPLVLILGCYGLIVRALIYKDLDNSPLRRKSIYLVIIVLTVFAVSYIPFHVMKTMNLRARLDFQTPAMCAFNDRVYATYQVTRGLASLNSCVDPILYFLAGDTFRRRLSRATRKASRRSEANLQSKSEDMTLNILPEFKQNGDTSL
UniProt P20272, sequence (whole entry, looked up): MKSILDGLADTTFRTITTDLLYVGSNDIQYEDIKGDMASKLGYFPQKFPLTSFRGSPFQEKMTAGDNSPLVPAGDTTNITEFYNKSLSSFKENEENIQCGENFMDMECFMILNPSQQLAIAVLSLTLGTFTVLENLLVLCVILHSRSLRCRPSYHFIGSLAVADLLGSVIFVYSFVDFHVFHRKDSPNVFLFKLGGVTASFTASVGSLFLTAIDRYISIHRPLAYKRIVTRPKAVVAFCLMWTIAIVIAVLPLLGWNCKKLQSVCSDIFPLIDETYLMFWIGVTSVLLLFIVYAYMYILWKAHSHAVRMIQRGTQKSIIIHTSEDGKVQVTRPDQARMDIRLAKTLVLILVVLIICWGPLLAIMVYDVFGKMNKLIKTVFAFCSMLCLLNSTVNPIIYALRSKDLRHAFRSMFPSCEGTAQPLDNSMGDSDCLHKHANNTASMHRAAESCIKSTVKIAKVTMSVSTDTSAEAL
UniProt P02730, sequence (whole entry, looked up): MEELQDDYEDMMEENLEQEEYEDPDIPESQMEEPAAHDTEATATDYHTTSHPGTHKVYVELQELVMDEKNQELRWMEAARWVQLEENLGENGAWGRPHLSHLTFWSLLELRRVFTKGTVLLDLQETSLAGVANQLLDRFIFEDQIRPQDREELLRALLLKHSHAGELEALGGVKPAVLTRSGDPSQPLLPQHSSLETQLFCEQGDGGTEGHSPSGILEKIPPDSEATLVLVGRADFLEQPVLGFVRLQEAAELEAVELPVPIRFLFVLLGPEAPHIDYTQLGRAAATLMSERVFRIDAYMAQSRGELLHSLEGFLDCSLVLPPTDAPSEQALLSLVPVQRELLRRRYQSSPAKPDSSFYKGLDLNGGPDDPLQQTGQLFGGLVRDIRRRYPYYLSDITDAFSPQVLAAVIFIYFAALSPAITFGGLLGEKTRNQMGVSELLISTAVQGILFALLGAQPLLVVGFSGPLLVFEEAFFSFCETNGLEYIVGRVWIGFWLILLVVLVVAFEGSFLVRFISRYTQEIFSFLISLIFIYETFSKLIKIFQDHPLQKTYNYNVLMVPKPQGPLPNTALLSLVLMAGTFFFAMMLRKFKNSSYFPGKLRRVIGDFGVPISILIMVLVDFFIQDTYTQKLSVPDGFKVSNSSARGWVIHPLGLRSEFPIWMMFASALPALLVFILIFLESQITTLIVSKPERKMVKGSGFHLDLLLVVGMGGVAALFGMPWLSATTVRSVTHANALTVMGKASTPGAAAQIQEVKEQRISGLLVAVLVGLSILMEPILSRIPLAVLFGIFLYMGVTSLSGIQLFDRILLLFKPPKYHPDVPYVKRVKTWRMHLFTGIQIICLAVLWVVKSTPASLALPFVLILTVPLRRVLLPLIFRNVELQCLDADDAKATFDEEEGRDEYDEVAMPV
UniProt P08682, sequence (whole entry, looked up): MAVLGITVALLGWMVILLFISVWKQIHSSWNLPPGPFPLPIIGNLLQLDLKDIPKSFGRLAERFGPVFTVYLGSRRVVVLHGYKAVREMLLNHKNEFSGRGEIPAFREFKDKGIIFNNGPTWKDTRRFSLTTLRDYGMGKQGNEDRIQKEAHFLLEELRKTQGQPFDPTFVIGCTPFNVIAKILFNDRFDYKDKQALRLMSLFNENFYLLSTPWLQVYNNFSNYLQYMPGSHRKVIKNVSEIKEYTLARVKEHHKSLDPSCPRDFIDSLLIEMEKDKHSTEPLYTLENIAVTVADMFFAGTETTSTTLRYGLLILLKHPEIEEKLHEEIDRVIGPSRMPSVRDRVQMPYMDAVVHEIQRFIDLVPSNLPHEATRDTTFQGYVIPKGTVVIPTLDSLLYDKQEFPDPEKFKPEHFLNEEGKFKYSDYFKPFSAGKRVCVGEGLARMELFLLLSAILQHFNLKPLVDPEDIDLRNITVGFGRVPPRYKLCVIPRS
UniProt Q12884, sequence (whole entry, looked up): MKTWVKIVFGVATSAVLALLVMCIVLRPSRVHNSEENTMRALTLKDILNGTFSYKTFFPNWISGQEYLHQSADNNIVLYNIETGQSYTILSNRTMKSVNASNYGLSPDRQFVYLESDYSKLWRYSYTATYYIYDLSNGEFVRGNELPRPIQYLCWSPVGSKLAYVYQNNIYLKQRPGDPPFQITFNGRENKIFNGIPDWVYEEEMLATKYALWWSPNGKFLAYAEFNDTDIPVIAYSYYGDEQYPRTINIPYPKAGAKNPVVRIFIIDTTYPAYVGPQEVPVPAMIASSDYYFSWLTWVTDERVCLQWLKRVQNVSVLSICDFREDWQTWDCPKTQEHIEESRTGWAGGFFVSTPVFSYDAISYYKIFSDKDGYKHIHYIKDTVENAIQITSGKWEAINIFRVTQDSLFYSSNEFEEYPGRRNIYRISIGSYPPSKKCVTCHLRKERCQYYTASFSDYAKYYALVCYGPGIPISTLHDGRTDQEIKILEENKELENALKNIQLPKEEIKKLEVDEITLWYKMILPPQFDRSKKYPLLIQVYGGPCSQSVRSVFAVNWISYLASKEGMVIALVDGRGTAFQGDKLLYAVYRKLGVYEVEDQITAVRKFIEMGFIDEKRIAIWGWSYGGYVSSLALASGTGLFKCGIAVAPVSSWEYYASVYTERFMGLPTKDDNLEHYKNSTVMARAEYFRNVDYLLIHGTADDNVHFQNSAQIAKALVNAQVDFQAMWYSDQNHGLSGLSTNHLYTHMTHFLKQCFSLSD

CCCN(CCC1(O)CC(NS(=O)(=O)c2cccc(OC)c2)C1)[C@H]1CCc2nc(N)sc2C1 (stereo in doubt) — Ki (dopamine D1-like receptor, rat; radioligand binding; rat striatal membranes; together with: [3H]SCH23390): 36.5 ± 2.24 µM
CC(=O)N(C/C=C/P(=O)(O)O)OCc1ccc(-c2ccccc2)cc1 — Ki (DXR; inhibitor; versus NADPH, together with: NADPH varied 6-30 µM, DXP 144 µM): 3.15 µM
CCCOc1ccc(CC2c3cc(OCCC)c(OC)cc3CCN2CC(=O)NCc2ccccc2)cc1OC (centres unmarked) — Kb (Orexin/Hypocretin receptor type 1 (HCRTR1, Homo sapiens, UniProt O43613); calcium signal, antagonist, fluorescence): 0.0161 µM
CCCN(CC[C@]1(O)C[C@H](NC(=O)c2cccc(Cl)c2)C1)[C@H]1CCc2nc(N)sc2C1 (relative stereo) — Ki (Drd3; ligand displacement, radioligand; cell membranes): 0.00058 µM
N=C(NCCCCCCCCCCN)NCCCc1c[nH]cn1 — Ki (HRH1; ligand displacement, radioligand; cell membranes): 0.871 µM
CCC[C@H]1c2ccccc2C=NN1C(=O)/C=C/c1cc(Cc2cnc(N)nc2N)cc(OC)c1OC (racemic) — Ki (Dihydrofolate reductase (Enterococcus faecalis, UniProt Q834R2); enzyme activity, inhibitor; together with: dihydrofolate (Km 10.9 µM)): 0.0045 µM
CSC(=N)NCCCc1c[nH]cn1 — Ki (HRH1; ligand displacement, radioligand; cell membranes): > 100 µM
CC(C)[C@H](NC(=O)[C@H](CCC(N)=O)NC(=O)CNC(=O)[C@H](CCC(N)=O)NC(=O)[C@H](CC(N)=O)NC(=O)[C@@H]1CCCCN1C(=O)CNC(=O)COCCOCCNC(=O)[C@H](CCCNC(=N)N)NC(=O)[C@@H](N)Cc1ccccc1)C(=O)O — Ki (Prolyl endopeptidase FAP (FAP, Homo sapiens, UniProt Q12884); enzyme activity, inhibitor, fluorescence; pH 7.5): 14.5 µM
Nc1ccc(-c2ccc3cc(OCCOCCN4CCSC4=O)ccc3n2)cc1 — Ki (Amyloid-beta precursor protein, amyloid-beta plaques (APP, Homo sapiens, UniProt P05067); radioligand competition binding; AD brain homogenate; 2 h, 37 °C, together with: [3H]PIB): > 1 µM
CCn1c2ccccc2c2cc(/C=N/Nc3cc(C)nc4cc5c(cc34)OCO5)ccc21 — Ki (DNA repair nuclease/redox regulator APEX1 (APEX1, Homo sapiens, UniProt P27695); enzyme activity, inhibitor): 0.12 µM
Cc1cc[nH]n1 — Ki (CYP2E1 (Oryctolagus cuniculus, UniProt P08682); 4-nitrophenol oxidation; reconstituted with CPR-K56Q and cytochrome b5; pH 7.4, 37 °C, together with: 4-nitrophenol): 21 µM
N=C(N)NCCCCCCCCCCCCNC(=N)NCCCc1cnc(N)s1 — Ki (HRH1; ligand displacement, radioligand; cell membranes): 0.525 µM
CCCN(CCC1(O)CC(NC(=O)c2ccccc2)C1)[C@H]1CCc2nc(N)sc2C1 (stereo in doubt) — Ki (dopamine D1-like receptor, rat; radioligand binding; rat striatal membranes; together with: [3H]SCH23390): 1.97 ± 0.179 µM
COC(=O)C1(C)C=CC(=O)CC1 (centres unmarked) — Ki (Mitogen-activated protein kinase 14 (MAPK14, Homo sapiens, UniProt Q16539); ligand displacement, FP): > 200 µM
CC(C)C(C(=O)O)[C@@H]1CCN[C@H]1C(=O)O (relative stereo) — Ki (NMDA receptor, rat; binding; cortical synaptosomes; together with: [3H]-CGP 39653): > 100 µM
C[C@@H](O)[C@H](N)C(=O)NCC(=O)N[C@@H](CCC(=O)O)C(=O)N[C@H](C(=O)N[C@H](C(=O)N[C@@H](Cc1ccccc1)C(=O)O)[C@@H](C)O)[C@@H](C)O — Ki (Na(+)/H(+) exchange regulatory cofactor NHE-RF2 PDZ domain 2; fluorescence polarization competition; together with: FITC-labelled LPA2 peptide tracer): 14.2 ± 2.2 µM
CCCCCCN1C(=O)C(O)=C(C(=O)c2ccccc2)C1c1ccc(O)c(OC)c1 (centres unmarked) — Ki (fMet-Leu-Phe receptor (FPR1, Homo sapiens, UniProt P21462); ligand displacement in cells): 3 µM
CCCCCCCCCC=O — Ki (MSP; binding, fluorescence displacement; together with: 1-AMA 2 µM): 0.18 µM
N=C(NCCCCCCCCN)NCCCc1c[nH]cn1 — Ki (HRH1; ligand displacement, radioligand; cell membranes): 1.23 µM
O=[N+]([O-])c1ccc(C=Cc2ccc([N+](=O)[O-])cc2S(=O)(=O)O)c(S(=O)(=O)O)c1 — Ki (SLC4A1 (Homo sapiens, UniProt P02730); chloride self-exchange, competitive inhibitor, 36Cl- efflux; human erythrocytes; 38 °C): 0.115 µM
COc1ccccc1NC(=O)Cn1cc(CSc2nc3ccccc3c3nc4ccccc4n23)nn1 — Ki (alpha-glucosidase (Saccharomyces cerevisiae); inhibitor, secondary plot): 12 µM
CNc1nc(C#CCCCCCc2cn(CCNC(C)=O)nn2)nc2c1ncn2[C@H]1C[C@H](OP(=O)(O)O)[C@]2(COP(=O)(O)O)C[C@H]12 — Ki (P2RY1; ligand displacement, radioligand; cell membranes): 6.3 µM
CCCN(CC[C@]1(O)C[C@H](NS(=O)(=O)c2ccccc2OC)C1)[C@H]1CCc2nc(N)sc2C1 (relative stereo) — Ki (Drd3; ligand displacement, radioligand; cell membranes): 0.0023 µM
Cc1c(C(=O)NN2CCCCC2)nn(-c2ccc(Cl)cc2Cl)c1/N=N/c1ccc(Cl)cc1Cl — Ki (Cannabinoid receptor 1 (Cnr1, Rattus norvegicus, UniProt P20272); radioligand binding; rat brain membranes; trans isomer, 454 nm light, together with: [3H]CP55940 0.6 nM): 0.401 ± 0.033 µM
CC(C)[C@H](NC(=O)[C@@H]1CCCN1C(=O)[C@H](CCCNC(=N)N)NC(=O)[C@H](CS)NC(=O)[C@H](Cc1c[nH]c2ccccc12)NC(=O)[C@H](CCCNC(=N)N)NC(=O)[C@@H](Cc1ccccc1)NC(=O)[C@H](Cc1c[nH]cn1)NC(=O)[C@H](CCC(=O)O)NC(=O)[C@H](CS)NC(=O)[C@H](CS)NC(=O)[C@H](CCCCN)NC(=O)[C@@H]1CC(=O)N[C@@H](CCCNC(=N)N)C(=O)N[C@@H](C)C(=O)N[C@@H](CC(=O)O)C(=O)N[C@H](Cc2ccc(O)cc2)C(=O)N1)C(N)=O [technetium-99m labelled] — tissue uptake (C57 mice, bone; intravenous, 0.037 MBq, 24 h): 0.11 ± 0.08 %ID/g
CCCN(CC[C@]1(O)C[C@@H](NC(=O)c2cccc(OC)c2)C1)[C@H]1CCc2nc(N)sc2C1 (relative stereo) — Ki (dopamine D1-like receptor, rat; radioligand binding; rat striatal membranes; together with: [3H]SCH23390): 64.2 ± 1.76 µM
COc1cccc(OC)c1-c1cc(C(=O)N[C@H](C(=O)O)C2CCCCC2)nn1-c1ccc(F)cc1 — Ki (Apelin receptor (APLNR, Homo sapiens, UniProt P35414); ligand displacement, radioligand; cell membranes): 5.2 µM
Nc1ncnc2c1ncn2[C@@H]1O[C@H](COP(=O)(O)O)[C@@H](OP(=O)(O)O)[C@H]1O — Ki (Protein-tyrosine sulfotransferase 2 (Homo sapiens, UniProt O60704); enzyme activity, inhibitor; pH 7.5): 3.8 µM
O=C(CCCc1ccccc1)N(O)C/C=C/P(=O)(O)O — Ki (DXR; inhibitor, Lineweaver-Burk plot; together with: DXP varied, NADPH 150 µM): 0.162 µM
CCC[C@H](N)C(=O)O — Ki (N(G),N(G)-dimethylarginine dimethylaminohydrolase 1 (DDAH1, Homo sapiens, UniProt O94760); enzyme activity, inhibitor, citrulline detection; together with: ADMA): 470 ± 20 µM
CNc1nc(C#CCCCC(=O)NCCN)nc2c1ncn2[C@H]1C[C@H](OP(=O)(O)O)[C@]2(COP(=O)(O)O)C[C@H]12 — Ki (P2RY1; ligand displacement, radioligand; cell membranes): 1.15 µM
CCCN(CCC1(O)CC(NS(=O)(=O)c2ccccc2F)C1)[C@H]1CCc2nc(N)sc2C1 (stereo in doubt) — Ki (dopamine D1-like receptor, rat; radioligand binding; rat striatal membranes; together with: [3H]SCH23390): 109 ± 2.5 µM
CCCCCCC=O — Ki (MSP; binding, fluorescence displacement; together with: 1-AMA 2 µM): 3.96 µM
O=C(Cc1cccs1)N[C@@H](Cn1cc(-c2nn[nH]n2)nn1)B(O)O — Ki (Beta-lactamase ADC-7 (Acinetobacter baumannii, UniProt Q6DRA1); inhibitor; 5 min preincubation, pH 7.4, room temperature, together with: nitrocefin): 0.076 ± 0.002 µM
CC(C)[C@H](NC(=O)[C@H](Cc1c[nH]c2ccccc12)NC(=O)[C@@H](NC(=O)[C@H](CCC(=O)O)NC(=O)[C@H](Cc1ccccc1)NC(=O)CN)[C@@H](C)O)C(=O)O — Ki (Na(+)/H(+) exchange regulatory cofactor NHE-RF2 PDZ domain 2; fluorescence polarization competition; together with: FITC-labelled LPA2 peptide tracer): 12.5 ± 2 µM
Cc1nc(N)sc1CCCNC(=N)NCCCCCCCCCCCCNC(=N)N — Ki (HRH1; ligand displacement, radioligand; cell membranes): 0.562 µM
CCCN(CCC1(O)CC(NC(=O)c2ccc(-c3noc(C)n3)cc2)C1)[C@H]1CCc2nc(N)sc2C1 (stereo in doubt) — Ki (Drd3; ligand displacement, radioligand; cell membranes): 0.00096 µM
O=C(O)CC(C(=O)O)[C@@H]1CCN[C@H]1C(=O)O (relative stereo) — Ki (NMDA receptor, rat; binding; cortical synaptosomes; together with: [3H]-CGP 39653): 2.7 µM

For quick reference, copied from above:
O=C(O)CC(C(=O)O)[C@@H]1CCN[C@H]1C(=O)O (relative stereo) — Ki (NMDA receptor, rat; binding; cortical synaptosomes; together with: [3H]-CGP 39653): 2.7 µM
CCCCCCN1C(=O)C(O)=C(C(=O)c2ccccc2)C1c1ccc(O)c(OC)c1 (centres unmarked) — Ki (fMet-Leu-Phe receptor (FPR1, Homo sapiens, UniProt P21462); ligand displacement in cells): 3 µM
Cc1nc(N)sc1CCCNC(=N)NCCCCCCCCCCCCNC(=N)N — Ki (HRH1; ligand displacement, radioligand; cell membranes): 0.562 µM
C[C@@H](O)[C@H](N)C(=O)NCC(=O)N[C@@H](CCC(=O)O)C(=O)N[C@H](C(=O)N[C@H](C(=O)N[C@@H](Cc1ccccc1)C(=O)O)[C@@H](C)O)[C@@H](C)O — Ki (Na(+)/H(+) exchange regulatory cofactor NHE-RF2 PDZ domain 2; fluorescence polarization competition; together with: FITC-labelled LPA2 peptide tracer): 14.2 ± 2.2 µM
COC(=O)C1(C)C=CC(=O)CC1 (centres unmarked) — Ki (Mitogen-activated protein kinase 14 (MAPK14, Homo sapiens, UniProt Q16539); ligand displacement, FP): > 200 µM
